Published values pooled from the literature.
Parts stem from different laboratories: compare values within a part only. Substitutions count along the parent as printed.

Study 1
Target: CCNA2, cyclin fold, Cln2 fusion (human)
Method: yeast growth competition, sequencing
Sample: yeast
Setting: strong parent motif
Baseline: not given
Reading: higher = stronger binding
Starting sequence: E2F3 docking peptide (human); PPAKRRLELGESG; partner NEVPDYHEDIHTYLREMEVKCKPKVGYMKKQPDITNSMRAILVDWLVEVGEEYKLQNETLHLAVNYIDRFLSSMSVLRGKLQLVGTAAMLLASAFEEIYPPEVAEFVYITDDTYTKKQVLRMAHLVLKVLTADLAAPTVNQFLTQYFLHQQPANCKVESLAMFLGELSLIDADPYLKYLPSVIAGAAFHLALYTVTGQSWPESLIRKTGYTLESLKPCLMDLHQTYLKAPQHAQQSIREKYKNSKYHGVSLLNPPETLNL
Change | normalised enrichment score
PPAARRLELGESG [K4A] | 2.66
PPAKRRLEFGESG [L9F] | 6.14
PPAKKRLEFGESG [R5K L9F] | 6.59
PPAKRRLELAESG [G10A] | 3.7
PPAKARAELGESG [R5A L7A] | 0.108
APAKRRLELGESG [P1A] | 4.13
PPAKRRAELGESG [L7A] | 0.459
PPAKRRLELGESA [G13A] | 4.66
PPAKRRLELGASG [E11A] | 4.92

Study 2
Target: Histone acetyltransferase KAT6A, winged helix 2, GST fusion (KAT6A, Homo sapiens, UniProt Q92794, residues 85-181)
Method: protein binding microarray
Molecule type: double-stranded DNA, one strand shown
Sample: in vitro
Tested at: not given
Setting: 8-mer, flanks averaged, mean of 2 arrays, mostly near background
Baseline: not given
Reading: higher = stronger binding
Target sequence (chain): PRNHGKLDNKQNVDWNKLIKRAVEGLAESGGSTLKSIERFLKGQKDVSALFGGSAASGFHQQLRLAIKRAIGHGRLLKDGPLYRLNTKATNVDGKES
Sequence | E-score
AGATCCCC | -0.0181
AATGCTTC | 0.0987
CACAGTCG | -0.0772
GGCTGGGA | -0.00497
ATGGTAAG | -0.114
CAACAGCC | -0.0109
ATGGGAGA | -0.224
AGCCCTTG | -0.0863
GGGCATTA | -0.0882
ACGAATCG | 0.0333
AAGAATAT | -0.172
ATACTTAG | -0.054
CATTCACG | -0.00962
ACCGGCAT | 0.0321
AGCCATAT | -0.0695
GGCGGGGA | 0.305
CGCAGATC | 0.114
AACTGGAA | -0.0841
CCCAGACC | 0.0192
CACCTAGG | -0.122
ACGATGAC | 0.0104
CCACTCGC | 0.116
CCTGCGAC | 0.0716
CCCTTGCC | 0.0264
AGATCCTG | -0.0204

Study 3
Target: Centromere-binding protein 1, full length, N-terminal tag (CBF1, Saccharomyces cerevisiae, UniProt P17106, residues 1-351)
Chain of UniProt P17106 (whole entry, looked up): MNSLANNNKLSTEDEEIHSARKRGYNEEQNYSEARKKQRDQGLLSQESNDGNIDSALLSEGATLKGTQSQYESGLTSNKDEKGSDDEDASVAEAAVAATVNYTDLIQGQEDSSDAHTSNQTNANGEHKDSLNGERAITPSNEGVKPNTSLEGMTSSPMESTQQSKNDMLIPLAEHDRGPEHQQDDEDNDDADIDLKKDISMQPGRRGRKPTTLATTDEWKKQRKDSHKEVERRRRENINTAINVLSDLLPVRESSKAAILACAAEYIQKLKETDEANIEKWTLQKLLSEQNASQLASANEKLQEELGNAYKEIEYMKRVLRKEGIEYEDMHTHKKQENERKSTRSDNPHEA
Method: protein-binding microarray
Molecule type: double-stranded DNA, one strand shown
Sample: in vitro
Tested at: 0.8 µM
Setting: whole 60-bp probe, no competitor
Reading: higher = stronger binding
Shared flanks, not repeated: … GTCTTGATTCGCTTGACGCTGCTG
Sequence | fluorescence intensity [a.u.]
GAATACTCTATACATCACGAAGTCTACGGCAACTAG | 548
CTAATAGGTTGATTAAACGTGTGTTACTCGTTTTTC | 494
CCTAACTACTATAAGAAGGTGACATAGCTTCGTACA | 516
GAAGAGCGCGCTGGGCATGTGCAATTCACATTTTAG | 621
GAATGCTCCGCTACAAACGTGGTGGAGTTTTAATAG | 503
CTACTGATTACGGATCACGTTCAAATTGGTAAATTC | 2080
CCTAACTACTATAGACATGTGCAATAGCTTCGTACA | 715
CTATTTAAATTACACGACATCACTCTTATTGAATTC | 564
TGTACGAAGCTATATCACGCGACTATAGTAGTTAGG | 1930
GAAGAACAATTGTGAAACGTGATCAATTCGTGTTAG | 3260
GAACATTATACAAGCCTCCTGATAAACGTATCTTAG | 552
CCTAACTACTATATTCACGGGAAATAGCTTCGTACA | 507
GAACGAGTTGTATGTCTCGTGATTCAGGTACTATAG | 2370
TGTACGAAGCTATATCAGGCATATATAGTAGTTAGG | 541
CTAGCATTTGTATGTCACGAGTTTTCCTTGATTTTC | 2190
GAATCTCTCTCTGATGACGTGATATCTTTTATGTAG | 792
GAAATAAAAGACCCTCACCTGTGTCACTAAATGTAG | 553
GAAAGGGTTACTATACACGATGAATGATTAGACTAG | 547
CTAGCACTATCATCATGCGTGATTGATATTTAATTC | 818

Study 4
Target: ABI1, truncated, D143A, DHFR fusion (Arabidopsis thaliana)
Method: DHFR PCA, deep sequencing
Sample: yeast
Setting: methotrexate growth selection, single substitutions
With: (+)-ABA 1.4 µM
Baseline: wild-type fitted maximum
Reading: higher = stronger binding
Starting sequence: PYL1, truncated, DHFR fusion (Arabidopsis thaliana); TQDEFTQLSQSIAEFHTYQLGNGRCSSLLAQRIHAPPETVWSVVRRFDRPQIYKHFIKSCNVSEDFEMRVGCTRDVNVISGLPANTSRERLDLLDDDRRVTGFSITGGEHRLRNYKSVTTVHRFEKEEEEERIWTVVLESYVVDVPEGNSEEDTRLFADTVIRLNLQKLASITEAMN; partner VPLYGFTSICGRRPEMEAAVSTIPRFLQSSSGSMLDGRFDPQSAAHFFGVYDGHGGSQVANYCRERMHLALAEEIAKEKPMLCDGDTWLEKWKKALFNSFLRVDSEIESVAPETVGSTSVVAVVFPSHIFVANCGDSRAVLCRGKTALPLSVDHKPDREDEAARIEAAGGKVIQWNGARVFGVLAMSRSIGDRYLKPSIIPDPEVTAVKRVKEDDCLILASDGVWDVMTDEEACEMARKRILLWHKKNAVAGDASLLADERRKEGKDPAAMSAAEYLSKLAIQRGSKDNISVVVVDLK
Change | relative binding score [%]
V121Q | -9.88
L93M | 53.4
E64G | 45
C25N | -31.7
G71W | 0.57
V40C | -3.13
R132D | 91.2
G107V | 1.84
A13R | 50.9
E130P | 92.4
W41I | -23.7
V44I | 38.3
Q31G | -3.65
D95Q | 9.45
A84H | 52.9
T39H | 38.9
I52E | 44.6
V43C | 5.56
D95C | 5.36
D95T | -1.19

Study 5
Target: Ras GTPase-activating protein-binding protein 1, C-terminal RGG region (G3BP1, Homo sapiens, UniProt Q13283)
Chain of UniProt Q13283 (whole entry, looked up): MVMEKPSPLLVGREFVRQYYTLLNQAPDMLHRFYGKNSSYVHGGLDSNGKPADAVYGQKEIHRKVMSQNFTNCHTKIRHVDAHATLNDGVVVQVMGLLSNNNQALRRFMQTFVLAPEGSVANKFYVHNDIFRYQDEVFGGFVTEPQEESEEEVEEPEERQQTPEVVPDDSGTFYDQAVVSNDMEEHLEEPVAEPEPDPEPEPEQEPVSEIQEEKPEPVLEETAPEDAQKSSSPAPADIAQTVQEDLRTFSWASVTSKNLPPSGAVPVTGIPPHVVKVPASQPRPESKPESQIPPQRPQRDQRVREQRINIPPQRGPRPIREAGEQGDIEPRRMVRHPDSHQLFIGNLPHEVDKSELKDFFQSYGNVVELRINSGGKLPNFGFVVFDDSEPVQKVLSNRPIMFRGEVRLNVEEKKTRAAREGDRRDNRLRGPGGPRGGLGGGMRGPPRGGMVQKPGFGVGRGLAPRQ
Method: RNA Bind-n-Seq
Molecule type: RNA
Sample: in vitro
Tested at: 1 µM
Setting: whole 134-nt RNA, ends assumed
With: 150 mM KCl
Baseline: input library
Reading: higher = stronger binding
Shared flanks, not repeated: GGGAGUUCUACAGUCCGACGAUC … UGGAAUUCUCGGGUGUCAAGG
Sequence | log2 enrichment
GUAGAAAUUCAUGUAUAAAUGGAACCAUAUAGUACAUACAUAUCAUACUCUUAGGUCUGGCAAAUAUUUGAGGUUCAUCCAUAUUUUAUA | -1.86
CCUGUGCUACACAUCGUAUGUACCGAAUCGGGAAAAAAAGGGAAAAAAAGGGAAAAAAAGGAAAGUAUUAUGUUACGCCGUUCGGAUCUG | -1.7
UGGCCCUGGUGGCAUGCGGGGAGGAAGAGGUGGCCUCAUGGAUCUUGGUGGUCCCGGUGGAAUGUUCAGAGGUGGCCGUGGUGGAGACAG | 2.74
AGUCCUGUGCUACACAUCGUAUGUACCGAAUCGGGGAGGGGAAAAAGGGGUUUGGGGAAAGUAUUAUGUUACGCCGUUCGGAUCUGCACU | 1.93
AGUCCUGUGCUACACAUCGUAUGUACCGAAUCGGGUUUUUGGGAAAAAAAGGGAGGGAAAGUAUUAUGUUACGCCGUUCGGAUCUGCACU | 0.54
UCAUUUUUUUCCCUGCCGGAAUUUUAGCAUUGAUAUGAACCAUGGACAAGUAUAUUCUGCUGCCACAAAGACUGUAAAGUGCUUCAUUUC | -0.534
UCCUGCCAACCUCUCUUAAUGCUCUGAGAGCCUCUGGUGUUGACAUAGAAGAGGAAACGGAGAAGAACCUGGAAAAGGUACAGACUAUCA | -2.28
CUGUGCUACACAUCGUAUGUACCGAAUCGGGGAAAGGGGAAAAAAAGGGGUUUUUUUGGGGAAAGUAUUAUGUUACGCCGUUCGGAUCUG | 0.112
ACGAUGCAGGUGGGCAUCUUUGGGAAGUGGGGCAAGGGGGGGAUAGGGAGGGGGGUAACACUUUGGGAACAGGUGGUCCCAGGUCGUUUC | -1.2

A few entries again (study 5):
Sequence | log2 enrichment
CCUGUGCUACACAUCGUAUGUACCGAAUCGGGAAAAAAAGGGAAAAAAAGGGAAAAAAAGGAAAGUAUUAUGUUACGCCGUUCGGAUCUG | -1.7
UGGCCCUGGUGGCAUGCGGGGAGGAAGAGGUGGCCUCAUGGAUCUUGGUGGUCCCGGUGGAAUGUUCAGAGGUGGCCGUGGUGGAGACAG | 2.74
AGUCCUGUGCUACACAUCGUAUGUACCGAAUCGGGGAGGGGAAAAAGGGGUUUGGGGAAAGUAUUAUGUUACGCCGUUCGGAUCUGCACU | 1.93
AGUCCUGUGCUACACAUCGUAUGUACCGAAUCGGGUUUUUGGGAAAAAAAGGGAGGGAAAGUAUUAUGUUACGCCGUUCGGAUCUGCACU | 0.54
UCAUUUUUUUCCCUGCCGGAAUUUUAGCAUUGAUAUGAACCAUGGACAAGUAUAUUCUGCUGCCACAAAGACUGUAAAGUGCUUCAUUUC | -0.534
UCCUGCCAACCUCUCUUAAUGCUCUGAGAGCCUCUGGUGUUGACAUAGAAGAGGAAACGGAGAAGAACCUGGAAAAGGUACAGACUAUCA | -2.28
CUGUGCUACACAUCGUAUGUACCGAAUCGGGGAAAGGGGAAAAAAAGGGGUUUUUUUGGGGAAAGUAUUAUGUUACGCCGUUCGGAUCUG | 0.112
